Measured values from different studies.
A part holds a random share of what one study measured.

Sample 1
Target: RNA binding protein fox-1 homolog 2, RRM domain, GST-SBP tag (RBFOX2, Homo sapiens, UniProt O43251-10, residues 100-194)
Technique: RNA Bind-n-Seq
Form: RNA
Medium: in vitro
Concentration: 365 nM
Setting: natural RNA segment, single round, ends assumed
Relative to: no-protein control
Reading: higher = stronger binding
Endpoint: RBNS enrichment (R)
Shared flanks, not repeated: GGGAGUUCUACAGUCCGACGAUC … UGGAAUUCUCGGGUGCCAA
Construct (chain): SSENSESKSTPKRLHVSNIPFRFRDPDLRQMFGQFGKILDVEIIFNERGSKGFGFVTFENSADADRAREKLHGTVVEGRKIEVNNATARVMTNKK
UGUGACUUGUUCAUCCCCCCUUCCCUUCGCCCUCAUGUGGAAAGAGGAGCUGGGACCGCGGCGAGCAGCACGGAGCGGAAGGGAGAGCAGGGGAGAGAAGGCCUCAUCUC: 0.777
ACCCAUCAAUAUGGAAUUUUGGGAGCCGACCUGAGUGCAAAUCCUAAUUCUGCCCCUGUUGGUGCAGAUGGCUGUGGGCGGCUCACUUGACCUUUUAGAGUCUGCAUACC: 0.39
ACUUCAUAUAUCUAUCAGGUAAUAUAGGCUUGAAAAUUGAUAUCCUGUGGUGCUAAAGUACAGUAGAAAGAUGUGUAUACGUUUUAUUUUAAAUUGUACGAAGGGGAAUU: 0.284
UUCCACUGCAAAUGCCCAGCAGUGAAGAUGGCCUCAAAUUGGGUUCUUGCCUGCAGUGUGUGUGGCAGCAGCCCAUGUGCCUUUACCUGUUGUCAAACUUGCAAGCAUUU: 0.704
GUUUGGGAUCCCUGAAGAGAGGGGCCCUAGGACAGCUCUUCCCUCGUCUUCACCCCGUCUCCACCCCACCUCUUCUGGCCCCCAGCCUCACUGUGGCUCUCUACAGUACC: 1.2
AAAUGCCAUGUACUUCUCUUGGGAAAAUAGACCCCCUUGCCUAGAGUAAGUUGUUAACUGAGGGCUUUAAACCUGGAGGCUCUUCCUGAAAGUAUGUUCAUGAAUACCCC: 1.15
GUACAGUGCCCCACCUAUUUAAAAAUCACGUACUUGCCCAGAACACUGUGAAACACUUAACAUAAGAACAAACGCAGCGUCUGGAUUCUUUCCAAGGAGAGCAGCUUUCU: 0.354
GUGUGGGUGUGGGUGCCAGCUCCAAGUUGGCUGAGCCUUUUUCCAGGUUCUACCCGGGCGCCUCUGUGUGUUCUACAGCACAGAGGACUUCGGGGAGAUUGAUUGGAUCA: 0.232
GAAAUAUUUACUACAUAUUUUCCAUCUGUAGUUUCUCAGAAGGGCUAUGGAUUAGUUUGAACUGUCAAAUCCUUGCAUACUUCUGUGACACCCCUGCCCAUUUUCUGUCU: 0.747
GUAGCCUGAGCAGAGAAGGAGCCCCAAGGCAGAAGCUGGGGCCUGCUCCCGCACUCUGAGAAGUGGGUCAGGUGAUGAUCCCUGCACUUGAUUGAGAUCAGAAUCCAUCA: 0.515
GUAGCCAUUUUCUAGUUAACUCAUGUAAACAAGUAAGAGUAACAUAACAGUAUUACCCUUUCACUGUUCUCACAGGACAUGUACCUAAUUAUGGUACUUAUUUAUGUAGU: 0.359
AGGUAGCUGAAGGCCUCAGCCCACCCACUCCCUUCUUCCCUGUGUGGGGCUCAAGCCUGGUGCACUUAGUAUAGAAGAGCUAACGUACUCAGGCUUGUGCCACGGGUGAG: 0.331

Sample 2
Target: Interferon regulatory factor 7, full length, phosphomimetic (IRF7, Homo sapiens, UniProt Q92985, residues 1-503, S101K/S471D/S472D/S475D/S476D/S477D/S483D/S484D/S487D)
Technique: protein-binding microarray
Form: double-stranded DNA, one strand shown
Medium: in vitro
Concentration: 250 nM
Setting: 60-bp whole probe
Added: salmon DNA 0.4 mg/ml
Relative to: random background probes
Reading: higher = stronger binding
Endpoint: log fluorescence
Shared flanks, not repeated: GCCTAGCAC … GTCTTGATTCGCTTGACGCTGCTG
Residues (chain): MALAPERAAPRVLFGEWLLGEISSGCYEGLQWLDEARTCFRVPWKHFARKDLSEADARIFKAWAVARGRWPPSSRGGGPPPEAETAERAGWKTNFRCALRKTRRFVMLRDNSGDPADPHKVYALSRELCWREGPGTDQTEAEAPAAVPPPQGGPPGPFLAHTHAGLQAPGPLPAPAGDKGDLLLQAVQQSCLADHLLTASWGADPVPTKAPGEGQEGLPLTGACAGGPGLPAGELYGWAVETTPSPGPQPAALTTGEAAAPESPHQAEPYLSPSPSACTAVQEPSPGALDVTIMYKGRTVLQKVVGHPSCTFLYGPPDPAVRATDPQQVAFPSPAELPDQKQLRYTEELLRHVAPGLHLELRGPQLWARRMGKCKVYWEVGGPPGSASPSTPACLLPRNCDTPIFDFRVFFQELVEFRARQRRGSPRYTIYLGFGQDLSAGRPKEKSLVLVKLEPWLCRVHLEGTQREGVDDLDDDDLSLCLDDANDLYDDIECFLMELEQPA
GACGACCTGGGGACTGGAGACGTGCTA: -0.575 z-score
CCCAAGATTGCCGTTTCCTAAGTGCTA: 0.291 z-score
GACGATATCAGACTGCAGACGTGCTAG: -0.217 z-score
GGGATAAGGACAGACACCATGTGCTAG: 0.0609 z-score
TTCGGTATCGGTATCGGTTAGTGCTAG: 2.74 z-score
GACGGTACCCTACTGCTGACGTGCTAG: -0.248 z-score
TCATCCCTCGGGTTGCGGACTGTGCTA: 0.586 z-score
GACGTACTGAGTTTCGAGACGTGCTAG: 3.28 z-score
GACCGTTTCGGTCTCGGGACGTGCTAG: 4.26 z-score
AACGAACTGAGACTGGAGACGTGCTAG: -0.236 z-score
GACGGTATCGACACTTGGGACGTGCTA: 0.0919 z-score
TTAGGCTTCGGGTTTCGGTTAGTGCTA: 5.53 z-score
GACGATCTCAGTCCCGAGACGTGCTAG: 0.166 z-score
TTAGGTTTCGGACTGAGTTAGTGCTAG: 4.08 z-score
TCAACTCTCTGCTTGTGACTGTGCTAG: -0.154 z-score
TCATTCCTAATTCTCTTACTGTGCTAG: 2.16 z-score
GACGGTGTCGGGTATCGGGACGTGCTA: -0.41 z-score
GACGGTTTCGCCTTTCGGGACGTGCTA: 8.34 z-score
TTAGGAATCGGGACTGGGTTAGTGCTA: 0.0201 z-score
GACGGACTGGGGACTGGGGAAGTGCTA: -0.636 z-score
GACGGACTGCTTTTGCTGACGTGCTAG: -0.131 z-score
CAGCCTCTACCTCCTGGGCTCGTGCTA: -0.121 z-score
TTAGGACTGCGGTATCGGTTAGTGCTA: 0.0758 z-score
GAAGAACTGAGTCTCGAGACGTGCTAG: 0.0239 z-score

Sample 3
Target: Sal-like protein 4, full length isoform B (SALL4, Homo sapiens, UniProt Q9UJQ4-2, residues 1-616)
Technique: universal PBM
Form: double-stranded DNA, one strand shown
Medium: in vitro
Concentration: not given
Setting: 8-mer, flanks averaged, mean of replicates
Reading: higher = stronger binding
Endpoint: E-score
AAATGCCC: -0.235
ACAGTTAG: -0.0142
AGAGTTGG: -0.0821
ATTAGGTC: 0.187
TCCGTTCA: -0.119
ACCGTGAT: 0.0808
ATCCACCA: 0.0675
GCCCGCCC: -0.38
AAGGCCCT: -0.0982
CGGGCACC: -0.24
GAGAACGC: -0.0988
ACATTAGA: 0.21
CAACGCAC: -0.0985
CGGAATCA: 0.00227
CATTTCAG: 0.0284
ATCTCGAA: 0.0358
CAGAGCGA: -0.148
ACCGCCTA: -0.111
CTTTCACC: 0.00599
AAAAGCCA: 0.00471
AAGTTGAT: 0.106
ACCCGGAC: -0.371
TCAGAGCA: -0.23
CATTATTC: 0.171
GGATTAAC: -0.0435

Sample 4
Target: RING finger protein unkempt homolog, zinc fingers 1-6, GST-SBP tag (UNK, Homo sapiens, UniProt Q9C0B0, residues 30-357)
Technique: RNA Bind-n-Seq
Form: RNA
Medium: in vitro
Concentration: not given
Setting: RNA with constant flanks, human and mouse sites, ends assumed
Relative to: input RNA pool
Reading: higher = stronger binding
Endpoint: bound/input enrichment
Shared flanks, not repeated: GGGAGUUCUACAGUCCGACGAUC … CAACAGAGGAUUGAGCAUCA
Construct (chain): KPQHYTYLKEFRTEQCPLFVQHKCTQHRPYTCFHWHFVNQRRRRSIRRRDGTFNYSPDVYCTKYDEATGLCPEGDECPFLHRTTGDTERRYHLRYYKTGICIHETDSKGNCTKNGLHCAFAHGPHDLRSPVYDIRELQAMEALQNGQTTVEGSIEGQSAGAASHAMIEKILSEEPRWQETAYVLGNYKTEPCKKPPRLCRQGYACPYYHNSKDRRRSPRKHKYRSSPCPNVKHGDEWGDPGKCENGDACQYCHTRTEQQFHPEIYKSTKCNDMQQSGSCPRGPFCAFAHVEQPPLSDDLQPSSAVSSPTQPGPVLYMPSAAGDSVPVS
UAUUAUUUAUUAUAGCAUUUUUGAUACCUCAUAUUCUGUUUACACAUCUUGAAAGGCGCUCAGUAGUUCUCUUACUAAACAACCACUACUCCAGAGAAUGGCAACGCUGAUUACCAGUAC: 7.94 ratio
GAUGACGAAACAGUUGAUAGCCUAGGACCCCUAGAGAAGGGACAAGUCAAAAACGAGGCUCUCAGAGAACUGAGAGUGGAACUCAGCCGGAAGCACCAGGCUCGGGGACUUGAUGGAUUC: 0.278 ratio
AACAGUGCAGAAGAGUUAGAAGGUCUUAUUGCUGAUCCUGAUGAGAUGAGAAUGCAAGCGCUGUUAAUUAGAGAACGGAUUCUUGGUCCUUCUCAUCCCGAUACCUCUUACUACAUUAGA: 0.326 ratio
GAAUUUGGGCAGGUUUUGGCUUCCUGUUCUUUUGACCGAACAGCUGCUGUAUGGGAAGAAAUAGUAGGAGAAUCAAAUGAUAAACUGCGAGGACAGAGCCACUGGGUUAAAAGGACAACU: 0.588 ratio
CUUGCGGUGGCGUAAUCUCUCAGCCUUUCUGUGUCUCCUUUCCUCCGCCUCAGUUUGGGGCGGGUCGGGGGAAUGGCUGAGGAGAUGGAGUCGUCGCUCGAGGCAAGCUUUUCGUCCAGC: 0.0804 ratio
ACGCUAUAUGCCCAUUUUGAACAAGCCAAUAUAAAAACACAAUUGCAGCAACUUGGUGUAACCCUUUCUAUGACUAGAACAGAACUUUCUCCUGCACAGAUCAAACAGCUUUUACAGAAU: 0.276 ratio
CUGAAAGCUGCCAUUGCAGAAUGUGAAGAAGUUAGAAGAAAAAGUGAACUGUUUAACCCUGUUAGUUUAGACUGUAAGCUAAGGCAAAAAGCAAUUGCAGAAGUUGAUGUGGGUACAGAU: 2.25 ratio
UCCCGGACCGCAGCGUUAAAAGGAUCUGAACAAAGUCUGCUCAAAUCUCCUGCUGUGAACCAGCAGAAUUUUUGAACAGGUUUCUUCACAUAUAAAAAUCUAUUGUAAAAAUACGGAAAA: 0.216 ratio
AUCUUAAAUGAGGAUAACUCUGUGGUCCUCGGCAUCUCAUCCCGAGAAGGGGAGGAGGUUAUGUUUAAAACUCCAGUGUCCAUCACUGAACACCCCAAAAUCAAUGAGUGGCUCACUCUG: 0.265 ratio
GCUGAAGAUGACAGCAAAAUAGAUUCAUGAAGUUUUUUGCCUCCCACGUUGGGAAGUCCUUAGUGAAGAAUUCUCCCAUGGGCCGUUCACUGUCCUUCUCCAGGCCCCUAUCUGUCCUCC: 0.496 ratio
CGCUGCUGGACAUAUGAGACAUCGCUGCUGGUAGAAGAGGCCAUUAGUGAGGAGCUUCCCUAUAGUGAAUACUUCGAGUACUUUGCCCCAGACUUCACACUUCAUCCAGAUGUCAGCACC: 0.558 ratio

Sample 5
Target: Histone acetyltransferase KAT6A, winged helix 2, GST fusion (KAT6A, Homo sapiens, UniProt Q92794, residues 85-181)
Technique: protein binding microarray
Form: double-stranded DNA, one strand shown
Medium: in vitro
Concentration: not given
Setting: 8-mer, flanks averaged, mean of 2 arrays, mostly near background
Relative to: not given
Reading: higher = stronger binding
Endpoint: E-score
Residues (chain): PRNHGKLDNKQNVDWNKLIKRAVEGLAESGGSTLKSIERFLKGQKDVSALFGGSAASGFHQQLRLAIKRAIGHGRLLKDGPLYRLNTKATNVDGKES
CCCCCTAG: -0.097
CATACACG: 0.0566
CAGTGATG: 0.0607
AATCGCAT: 0.0655
ATTGTGCG: -0.00296
AACTATCT: -0.0729
CATTGCTA: 0.109
GTTAGCAA: 0.0355
GCTCAAAA: 0.141
ATAGCTAT: -0.0511
AGCTATAC: -0.0315
ACCAGACA: 0.108
AAAGCGCT: 0.274
ACGGCCAC: 0.113
AATTTGTC: 0.105
TACGGAGA: -0.0818

Repeated from above (sample 3):
ACCGTGAT: 0.0808
ATCCACCA: 0.0675
GCCCGCCC: -0.38
AAGGCCCT: -0.0982
CGGGCACC: -0.24
GAGAACGC: -0.0988
ACATTAGA: 0.21
CAACGCAC: -0.0985
CGGAATCA: 0.00227
CATTTCAG: 0.0284
ATCTCGAA: 0.0358
